Experimental data collected from several papers.
“And” joins repeats or separate records; there may be more than shown. ± gives the spread as reported.

| Structure (SMILES) | tested on | assay | system | conditions | how to read | measurement | value |
| --- | --- | --- | --- | --- | --- | --- | --- |
| CC(C)(C)C(=O)OCOP(=O)(OCOC(=O)C(C)(C)C)C1CCCN(O)C1=O (stereo not drawn) | SW-620 |  |  |  |  | log GI50 | -6.31 log M |
| O=C(O)/C=C\c1ccc2occc2c1O[C@@H]1O[C@H](CO)[C@@H](O)[C@H](O)[C@H]1O |  | post-procedure stability | rat plasma | 8 ng/mL, 3 h, room temperature |  | accuracy | 100% |
| N#[11C]c1ccc(-c2csc(NN=C3CCCC3)n2)cc1 |  |  | C57BL/6 mice, male, bone | intravenous, 3 MBq, 5 min |  | radioactivity uptake | 1.62 ± 0.26 %ID/g |
| CC(C)C[C@H](NC(=O)[C@H](Cc1ccc(O)cc1)NC(=O)[C@H](Cc1c[nH]cn1)NC(=O)[C@H](CC(=O)O)NC(=O)[C@H](CC(C)C)NC(=O)[C@H](C)NC(=O)[C@H](CC(C)C)NC(=O)CNC(=O)CNC(=O)[C@@H](NC(=O)[C@@H](NC(=O)[C@H](CCCCN)NC(=O)CNC(=O)[C@@H](NC(=O)[C@H](CCCCN)NC(=O)[C@H](CCCCN)NC(=O)[C@H](C)NC(=O)[C@H](CCCCN)NC(=O)[C@H](CCCNC(=N)N)NC(=O)[C@H](Cc1ccccc1)NC(=O)[C@@H](NC(=O)[C@H](CO)NC(=O)[C@H](CCCCN)NC(=O)[C@H](Cc1c[nH]c2ccccc12)NC(=O)CN)C(C)C)C(C)C)[C@@H](C)O)C(C)C)C(N)=O |  |  | zebrafish embryos 4 hpf, E3 medium | 1 h |  | acute toxic concentration | 5 µM |
| NC1CCN(C(=O)Oc2ccc(C3CCCC4(C3)OOC3(O4)C4CC5CC(C4)CC3C5)cc2)CC1 (racemic) |  |  | male ICR mice, plasma | oral, 50 mg/kg |  | half-life | 427 min |
| CC[C@H](C)[C@H](NC(=O)[C@H](CCCN)NC(=O)[C@H](CCCNC(=N)N)NC(=O)[C@@H]1CCCN1C(=O)[C@@H]1CCCN1C(=O)[C@H](CCCNC(=N)N)NC(=O)[C@@H]1CCCN1C(=O)[C@H](CCCNC(=N)N)NC(=O)[C@@H]1CCCN1C(=O)[C@H](CC(C)C)NC(=O)[C@H](Cc1ccc(O)cc1)NC(=O)[C@@H]1CCCN1C(=O)[C@@H]1CCCN1C(=O)[C@H](CCCCN)NC(=O)[C@H](CC(=O)O)NC(=O)[C@@H](N)C(C)C)C(=O)N[C@@H](Cc1ccc(O)cc1)C(=O)N[C@@H](CC(N)=O)C(=O)N[C@@H](CCCN)C(N)=O |  | competitive ELISA | mouse CD-1, female, plasma | subcutaneous, 4.34 µmol/kg |  | mean residence time | 53 min |
| CN1Cc2cc(Cl)ccc2-n2c(nnc2C2CCN(c3cccc([18F])n3)CC2)C1 |  | PET two-tissue compartment model | rhesus monkey, occipital cortex | intravenous, dose not given, 80 min scan, baseline scan |  | total volume of distribution | 0.97 ± 0.36 mL/cm3 |
| O=C1NC2(CC2)COc2ncc(F)cc2[C@H]2COCCN2c2ccn3ncc1c3n2 |  |  | Sprague-Dawley rat, male, testes | oral, 10 mg/kg/day, 4 weeks, end of treatment |  | organ-to-brain weight ratio | 156 ± 12.5% |
| CCCCCCCCCCCCCCCC(=O)N[C@@H](CCC(=O)NCCOCCOCCC(=O)NCCOCCOCCC(=O)NCCCC[C@H](NC(=O)[C@H](CC(=O)O)NC(=O)[C@H](CC(C)C)NC(=O)[C@H](Cc1ccc(O)cc1)NC(=O)[C@H](CCCCN)NC(=O)[C@H](CO)NC(=O)[C@H](Cc1ccc(O)cc1)NC(=O)[C@H](CC(=O)O)NC(=O)[C@H](CO)NC(=O)[C@@H](NC(=O)[C@H](Cc1ccccc1)NC(=O)[C@@H](NC(=O)CNC(=O)[C@H](CCC(N)=O)NC(=O)[C@@H](CO)NC(=O)[C@@H](N)Cc1c[nH]cn1)[C@@H](C)O)[C@@H](C)O)C(=O)N[C@@H](CCCNC(=N)N)C(=O)N[C@@H](CCCNC(=N)N)C(=O)N[C@@H](C)C(=O)N[C@@H](CCC(N)=O)C(=O)N[C@@H](CC(=O)O)C(=O)N[C@@H](Cc1ccccc1)C(=O)N[C@H](C(=O)N[C@@H](CCC(N)=O)C(=O)N[C@@H](Cc1c[nH]c2ccccc12)C(=O)N[C@@H](CC(C)C)C(=O)N[C@@H](CC(C)C)C(=O)N[C@@H](CC(N)=O)C(=O)N[C@H](C(=O)NCC(=O)NCC(=O)N1CCC[C@H]1C(=O)N[C@@H](CO)C(=O)N[C@@H](CO)C(=O)NCC(=O)N[C@@H](C)C(=O)N1CCC[C@H]1C(=O)N1CCC[C@H]1C(=O)N1CCC[C@H]1C(=O)N[C@@H](CO)C(N)=O)[C@@H](C)O)C(C)C)C(=O)O |  |  | rhesus monkey, plasma | subcutaneous, 5 µg/kg |  | bioavailability | 13.1% |
| C[C@H](O)[C@@H](NC(=O)[C@H]1CCCN1C(=O)[C@@H](CCCCN)NC(=O)[C@@H](CO)NC(=O)[C@@H](Cc1ccc(O)cc1)NC(=O)[C@@H](CC(N)=O)NC(=O)CCOCCOCCOCCNC(=O)CN1CCN(CC(=O)O)CCN(CC(=O)O)CCN(CC(=O)O)CC1)C(=O)N[C@H](CC(=O)O)C(=O)N[C@H](CCCNC(=N)N)C(=O)N[C@H](CCC(N)=O)C(=O)N[C@H](Cc1ccc(O)cc1)C(=O)N[C@H](Cc1c[nH]cn1)C(=O)N[C@H](Cc1ccccc1)C(N)=O [copper-64 labelled] |  |  | C57BL/6J mice, muscle | intravenous, 1.85 MBq, 0.3333 h, radiolabelled |  | tissue uptake | 0.9 ± 0.3 %ID/g |
| CC(=O)NCCCC[C@@H]1NC(=O)[C@H](Cc2c[nH]c3c(C)cccc23)NC(=O)[C@H]([C@@H](C)O)NC(=O)[C@H](CC(N)=O)NC(=O)[C@@H](NC(C)=O)C(C)(C)SSC(C)(C)[C@@H](C(=O)N[C@@H](Cc2ccc(OCCN)cc2)C(=O)N[C@@H](Cc2ccc3ccccc3c2)C(=O)NC2(C(=O)N[C@@H](CCC(=O)O)C(=O)N[C@@H](CC(N)=O)C(=O)N[C@@H](Cc3cccnc3)C(=O)N(C)CC(N)=O)CCOCC2)NC1=O |  |  | human | oral, 10 mg multiple doses, day 10 |  | apparent clearance CL/F | 5380 ± 1450 L/h |
| COCC1CN(C2CCN(c3cc(OC)c(Nc4ncc(Br)c(Nc5ccc6c(c5P(C)(C)=O)OCCO6)n4)cc3C)CC2)C1 |  |  | EGFR-mutant NSCLC patients | oral, 90 mg once daily |  | treatment-related AEs leading to death | 0% |
| Cc1ccc(N2CC3CCC(C2)N3C)cc1C(=O)N[C@H](C)c1cc(-c2cnn(C)c2)nc2ccccc12 | African green monkey cells |  |  | 7.812 µM |  | viability | 100% |
| CC[C@H](C)[C@@H]1NC(=O)[C@H](Cc2ccc(O)cc2)NC(=O)CCCSC[C@@H](C(=O)N(CC(=O)N[C@@H](CC(C)C)C(=O)NCC(N)=O)Cc2ccc(F)cc2)NC(=O)[C@H](CC(N)=O)NC(=O)[C@H](CCC(N)=O)NC1=O |  |  | human | intranasal, 15 µg single dose |  | deaths | 0% |
| CC(=O)N[C@@H](CCCNC(=N)N)C(=O)N[C@@H](CCCCN)C(=O)N[C@@H](CCC(=O)N=S(c1ccc(Cl)cc1)c1ccccc1O)C(=O)N[C@H](C(=O)N[C@@H](Cc1ccc(O)cc1)C(N)=O)C(C)C (stereo partly drawn) |  | HPLC | 95% FBS in PBS | 0.5 mM, 6 h, pH 7.4, 37 °C |  | hydrolysis | 6% |
| CC(C)(CCCC/C=C/CCCCCC(C)(C)C(=O)O)C(=O)O |  |  | ICR mice, both sexes | oral, dose not given, 3 h |  | plasma concentration | 9340 ng/mL |
| CC[C@H](C)[C@H](NC(=O)[C@H](CCCCN)NC(=O)CNC(=O)[C@H](CC(C)C)NC(=O)[C@H](Cc1ccccc1)NC(=O)[C@H](CCCCN)NC(=O)[C@H](CO)NC(=O)[C@H](Cc1ccccc1)NC(=O)[C@H](Cc1c[nH]c2ccccc12)NC(=O)[C@H](CCC(N)=O)NC(=O)[C@@H](NC(=O)[C@H](Cc1ccccc1)NC(=O)CCCCCNC(=O)CN1CCN(CC(=O)O)CCN(CC(=O)O)CCN(CC(=O)O)CC1)C(C)C)C(=O)N[C@@H](CCC(=O)O)C(=O)N1CCC[C@H]1C(=O)N[C@@H](CC(=O)O)C(=O)N[C@H](C(=O)N[C@@H](CO)C(=O)N[C@@H](CCC(N)=O)C(=O)N[C@H](C(=O)N[C@@H](CCC(N)=O)C(=O)N[C@@H](CC(=O)O)C(=O)N1CCC[C@H]1C(=O)N[C@@H](CC(N)=O)C(=O)N[C@@H](CC(=O)O)C(=O)N[C@@H](CCC(N)=O)C(=O)N[C@@H](Cc1ccc(O)cc1)C(=O)N[C@@H](CCC(=O)O)C(=O)N1CCC[C@H]1C(=O)N[C@@H](Cc1ccccc1)C(=O)O)C(C)C)C(C)C [copper-64 labelled] |  |  | C57BL/6 mice, stomach | with: LPS 3 mg/kg intratracheal |  | tissue uptake | 2.53 ± 0.2 %ID/g |
| C=Cc1c(C)c2cc3nc(c(CC(=O)O)c4[nH]c(cc5nc(cc1[nH]2)C(C)=C5CC)c(C)c4C(=O)O)[C@@H](CCC(=O)NCCCC[C@H](NC(C)=O)C(=O)N[C@@H](Cc1ccccc1)C(=O)N[C@@H](Cc1ccccc1)C(=O)N[C@H](C(=O)N[C@@H](CC(C)C)C(=O)N[C@@H](CCCCN)C(=O)N[C@@H](CO)C(=O)NCC(=O)N[C@@H](CCC(N)=O)C(=O)NCC(=O)N[C@@H](Cc1ccc(O)cc1)C(=O)N[C@@H](CCCNC(=N)N)C(=O)N[C@@H](Cc1c[nH]c2ccccc12)C(=O)N[C@@H](CC(=O)O)C(=O)N[C@@H](CO)C(=O)N[C@@H](Cc1ccc(O)cc1)C(=O)N[C@@H](CCCNC(=N)N)C(=O)N[C@@H](Cc1c[nH]c2ccccc12)C(=O)N[C@@H](Cc1c[nH]cn1)C(=O)N1CCC[C@H]1C(=O)N[C@@H](CO)C(=O)N[C@@H](CS)C(=O)N[C@@H](C)C(=O)N[C@@H](CS)C(=O)NCC(=O)NCC(=O)N[C@@H](CO)C(=O)N[C@@H](CCCCN)C(N)=O)C(C)C)[C@@H]3C |  |  | mouse, 4T1 breast tumour, serum | concentration not given, 21 days after single dose |  | TNF level | 43.1 pg/mL and 42.2 pg/mL |
| CC(C)[C@H](NC(=O)[C@@H](NC(=O)[C@H](CCCNC(=N)N)NC(=O)[C@H](CCCNC(=N)N)NC(=O)[C@H](CCCNC(=N)N)NC(=O)[C@H](CCC(N)=O)NC(=O)[C@H](CCCNC(=N)N)NC(=O)[C@H](CCCNC(=N)N)NC(=O)[C@H](CCCCN)NC(=O)[C@H](CCCCN)NC(=O)[C@H](CCCNC(=N)N)NC(=O)CN)[C@@H](C)O)C(=O)N[C@H](C(=O)N[C@@H](CO)C(=O)N1CCC[C@H]1C(=O)O)[C@@H](C)O |  |  | ICR mice, female, spleen | intranasal, 5 mg/kg daily, 4 weeks |  | organ weight | 0.074 ± 0.012 g |
| Cc1ccc(N2CC3CN(C)CC3C2)cc1C(=O)N[C@H](C)c1cc(-c2cnn(C)c2)nc2ccccc12 (stereo partly drawn) | African green monkey cells |  |  | 3.906 µM |  | viability | 80.1% |
| COc1ccccc1-c1n[nH]c2nc(NC3CCN(C(=O)Cc4ccc(F)cc4F)CC3)ncc12 |  | bead binding, competition bead pull-down, item: LMJF.21.1552 | Leishmania donovani axenic amastigote extract | 10 µM | reference: vehicle | relative abundance | 0.98 |

Some of these lines once more:
| Structure (SMILES) | tested on | assay | system | conditions | how to read | measurement | value |
| --- | --- | --- | --- | --- | --- | --- | --- |
| C[C@H](O)[C@@H](NC(=O)[C@H]1CCCN1C(=O)[C@@H](CCCCN)NC(=O)[C@@H](CO)NC(=O)[C@@H](Cc1ccc(O)cc1)NC(=O)[C@@H](CC(N)=O)NC(=O)CCOCCOCCOCCNC(=O)CN1CCN(CC(=O)O)CCN(CC(=O)O)CCN(CC(=O)O)CC1)C(=O)N[C@H](CC(=O)O)C(=O)N[C@H](CCCNC(=N)N)C(=O)N[C@H](CCC(N)=O)C(=O)N[C@H](Cc1ccc(O)cc1)C(=O)N[C@H](Cc1c[nH]cn1)C(=O)N[C@H](Cc1ccccc1)C(N)=O [copper-64 labelled] |  |  | C57BL/6J mice, muscle | intravenous, 1.85 MBq, 0.3333 h, radiolabelled |  | tissue uptake | 0.9 ± 0.3 %ID/g |
| O=C1NC2(CC2)COc2ncc(F)cc2[C@H]2COCCN2c2ccn3ncc1c3n2 |  |  | Sprague-Dawley rat, male, testes | oral, 10 mg/kg/day, 4 weeks, end of treatment |  | organ-to-brain weight ratio | 156 ± 12.5% |
| CN1Cc2cc(Cl)ccc2-n2c(nnc2C2CCN(c3cccc([18F])n3)CC2)C1 |  | PET two-tissue compartment model | rhesus monkey, occipital cortex | intravenous, dose not given, 80 min scan, baseline scan |  | total volume of distribution | 0.97 ± 0.36 mL/cm3 |
